Measurements pooled from the literature.
Lines come from different studies, so protocols differ. Values joined by “and” are separate records of one study, mostly repeats; a detail may differ. ± marks the error that the study gave.
UniProt Q13557, sequence (whole entry, looked up): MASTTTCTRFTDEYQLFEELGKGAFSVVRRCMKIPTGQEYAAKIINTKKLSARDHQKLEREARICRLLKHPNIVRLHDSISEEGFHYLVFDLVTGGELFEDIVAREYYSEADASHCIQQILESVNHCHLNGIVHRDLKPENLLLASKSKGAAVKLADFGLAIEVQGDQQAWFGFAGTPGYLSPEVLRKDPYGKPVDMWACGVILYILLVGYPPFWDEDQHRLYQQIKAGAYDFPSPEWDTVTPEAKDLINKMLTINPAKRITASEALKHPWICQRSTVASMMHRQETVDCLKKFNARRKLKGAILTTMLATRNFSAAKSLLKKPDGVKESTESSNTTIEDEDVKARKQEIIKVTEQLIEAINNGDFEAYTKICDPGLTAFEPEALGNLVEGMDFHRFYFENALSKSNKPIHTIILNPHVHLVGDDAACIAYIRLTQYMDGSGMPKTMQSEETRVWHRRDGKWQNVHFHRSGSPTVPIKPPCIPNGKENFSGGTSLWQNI
UniProt P10632, sequence (whole entry, looked up): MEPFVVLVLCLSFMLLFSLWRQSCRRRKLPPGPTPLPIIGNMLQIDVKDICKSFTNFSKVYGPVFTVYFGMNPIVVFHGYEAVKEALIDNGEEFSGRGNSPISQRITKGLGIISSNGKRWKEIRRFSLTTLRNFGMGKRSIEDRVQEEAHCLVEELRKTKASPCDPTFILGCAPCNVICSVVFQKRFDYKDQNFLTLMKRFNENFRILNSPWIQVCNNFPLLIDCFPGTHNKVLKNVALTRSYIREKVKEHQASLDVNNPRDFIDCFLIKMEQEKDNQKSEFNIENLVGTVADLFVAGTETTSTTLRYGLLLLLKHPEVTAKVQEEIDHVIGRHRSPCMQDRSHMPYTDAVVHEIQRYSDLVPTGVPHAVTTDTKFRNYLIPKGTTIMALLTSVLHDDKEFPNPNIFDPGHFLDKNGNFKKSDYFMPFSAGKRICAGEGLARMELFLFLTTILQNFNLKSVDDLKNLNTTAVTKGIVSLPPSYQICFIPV
UniProt Q9H2K8, sequence (whole entry, looked up): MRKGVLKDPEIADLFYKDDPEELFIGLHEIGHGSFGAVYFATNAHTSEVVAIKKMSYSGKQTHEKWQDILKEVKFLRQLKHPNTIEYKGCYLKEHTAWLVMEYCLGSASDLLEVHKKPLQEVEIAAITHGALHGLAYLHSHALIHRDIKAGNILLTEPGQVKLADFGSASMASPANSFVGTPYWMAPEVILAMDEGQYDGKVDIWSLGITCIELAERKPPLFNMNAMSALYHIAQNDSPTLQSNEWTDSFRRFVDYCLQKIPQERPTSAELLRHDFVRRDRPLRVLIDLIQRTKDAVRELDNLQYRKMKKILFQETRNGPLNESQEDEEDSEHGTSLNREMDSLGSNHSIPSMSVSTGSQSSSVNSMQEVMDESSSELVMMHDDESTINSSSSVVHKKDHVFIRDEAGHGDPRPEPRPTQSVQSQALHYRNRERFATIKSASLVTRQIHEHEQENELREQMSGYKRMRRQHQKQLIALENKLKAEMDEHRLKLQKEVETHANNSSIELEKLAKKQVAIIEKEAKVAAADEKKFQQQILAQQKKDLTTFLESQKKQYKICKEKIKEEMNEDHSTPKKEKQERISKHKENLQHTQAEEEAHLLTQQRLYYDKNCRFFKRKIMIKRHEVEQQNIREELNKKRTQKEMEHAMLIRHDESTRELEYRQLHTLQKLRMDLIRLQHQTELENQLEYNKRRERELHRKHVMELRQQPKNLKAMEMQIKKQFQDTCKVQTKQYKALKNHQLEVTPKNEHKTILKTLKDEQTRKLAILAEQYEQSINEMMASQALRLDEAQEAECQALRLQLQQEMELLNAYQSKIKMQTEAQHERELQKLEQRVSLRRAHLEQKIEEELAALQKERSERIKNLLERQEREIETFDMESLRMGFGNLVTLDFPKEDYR
UniProt Q96GD4, sequence (whole entry, looked up): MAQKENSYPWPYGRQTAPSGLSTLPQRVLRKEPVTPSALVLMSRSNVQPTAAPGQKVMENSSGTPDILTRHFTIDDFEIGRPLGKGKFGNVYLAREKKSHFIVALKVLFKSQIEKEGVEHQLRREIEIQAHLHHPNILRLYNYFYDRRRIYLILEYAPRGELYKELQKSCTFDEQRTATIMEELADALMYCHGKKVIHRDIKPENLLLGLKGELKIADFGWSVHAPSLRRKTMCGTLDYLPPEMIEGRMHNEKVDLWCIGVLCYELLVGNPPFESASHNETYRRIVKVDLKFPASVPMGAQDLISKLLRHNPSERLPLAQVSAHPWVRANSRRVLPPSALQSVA
UniProt Q9H2X6, sequence (whole entry, looked up): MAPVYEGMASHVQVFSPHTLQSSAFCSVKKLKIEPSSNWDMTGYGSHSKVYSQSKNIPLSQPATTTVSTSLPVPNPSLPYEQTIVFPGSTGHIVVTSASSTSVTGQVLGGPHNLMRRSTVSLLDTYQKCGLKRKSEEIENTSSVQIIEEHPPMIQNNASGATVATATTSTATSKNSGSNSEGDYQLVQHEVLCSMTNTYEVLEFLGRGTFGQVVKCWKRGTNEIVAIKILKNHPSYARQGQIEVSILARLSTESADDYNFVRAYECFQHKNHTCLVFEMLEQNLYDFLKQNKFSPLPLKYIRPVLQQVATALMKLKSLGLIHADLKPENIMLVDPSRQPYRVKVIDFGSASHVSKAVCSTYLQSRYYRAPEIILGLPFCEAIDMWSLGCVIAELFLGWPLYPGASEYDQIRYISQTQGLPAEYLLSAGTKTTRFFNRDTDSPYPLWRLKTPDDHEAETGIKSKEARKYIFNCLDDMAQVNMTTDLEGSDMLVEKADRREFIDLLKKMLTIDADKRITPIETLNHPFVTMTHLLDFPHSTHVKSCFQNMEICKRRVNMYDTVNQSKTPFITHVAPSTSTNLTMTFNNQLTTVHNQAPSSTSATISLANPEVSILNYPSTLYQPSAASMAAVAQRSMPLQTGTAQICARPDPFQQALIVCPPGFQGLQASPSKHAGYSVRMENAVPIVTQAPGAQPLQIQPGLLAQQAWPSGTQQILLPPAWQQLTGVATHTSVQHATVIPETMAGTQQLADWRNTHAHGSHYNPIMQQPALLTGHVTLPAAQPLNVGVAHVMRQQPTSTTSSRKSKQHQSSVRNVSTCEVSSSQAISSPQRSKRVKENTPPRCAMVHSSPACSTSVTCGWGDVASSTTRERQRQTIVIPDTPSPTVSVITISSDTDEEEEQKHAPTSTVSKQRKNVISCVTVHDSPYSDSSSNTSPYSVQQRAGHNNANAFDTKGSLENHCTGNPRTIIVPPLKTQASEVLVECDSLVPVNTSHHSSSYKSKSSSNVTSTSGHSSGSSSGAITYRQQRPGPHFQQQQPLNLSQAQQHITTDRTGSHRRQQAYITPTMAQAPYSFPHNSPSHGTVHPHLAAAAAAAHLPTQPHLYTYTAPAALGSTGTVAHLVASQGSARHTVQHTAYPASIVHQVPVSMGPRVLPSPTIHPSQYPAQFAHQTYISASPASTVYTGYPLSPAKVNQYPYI
UniProt P08183, sequence (whole entry, looked up): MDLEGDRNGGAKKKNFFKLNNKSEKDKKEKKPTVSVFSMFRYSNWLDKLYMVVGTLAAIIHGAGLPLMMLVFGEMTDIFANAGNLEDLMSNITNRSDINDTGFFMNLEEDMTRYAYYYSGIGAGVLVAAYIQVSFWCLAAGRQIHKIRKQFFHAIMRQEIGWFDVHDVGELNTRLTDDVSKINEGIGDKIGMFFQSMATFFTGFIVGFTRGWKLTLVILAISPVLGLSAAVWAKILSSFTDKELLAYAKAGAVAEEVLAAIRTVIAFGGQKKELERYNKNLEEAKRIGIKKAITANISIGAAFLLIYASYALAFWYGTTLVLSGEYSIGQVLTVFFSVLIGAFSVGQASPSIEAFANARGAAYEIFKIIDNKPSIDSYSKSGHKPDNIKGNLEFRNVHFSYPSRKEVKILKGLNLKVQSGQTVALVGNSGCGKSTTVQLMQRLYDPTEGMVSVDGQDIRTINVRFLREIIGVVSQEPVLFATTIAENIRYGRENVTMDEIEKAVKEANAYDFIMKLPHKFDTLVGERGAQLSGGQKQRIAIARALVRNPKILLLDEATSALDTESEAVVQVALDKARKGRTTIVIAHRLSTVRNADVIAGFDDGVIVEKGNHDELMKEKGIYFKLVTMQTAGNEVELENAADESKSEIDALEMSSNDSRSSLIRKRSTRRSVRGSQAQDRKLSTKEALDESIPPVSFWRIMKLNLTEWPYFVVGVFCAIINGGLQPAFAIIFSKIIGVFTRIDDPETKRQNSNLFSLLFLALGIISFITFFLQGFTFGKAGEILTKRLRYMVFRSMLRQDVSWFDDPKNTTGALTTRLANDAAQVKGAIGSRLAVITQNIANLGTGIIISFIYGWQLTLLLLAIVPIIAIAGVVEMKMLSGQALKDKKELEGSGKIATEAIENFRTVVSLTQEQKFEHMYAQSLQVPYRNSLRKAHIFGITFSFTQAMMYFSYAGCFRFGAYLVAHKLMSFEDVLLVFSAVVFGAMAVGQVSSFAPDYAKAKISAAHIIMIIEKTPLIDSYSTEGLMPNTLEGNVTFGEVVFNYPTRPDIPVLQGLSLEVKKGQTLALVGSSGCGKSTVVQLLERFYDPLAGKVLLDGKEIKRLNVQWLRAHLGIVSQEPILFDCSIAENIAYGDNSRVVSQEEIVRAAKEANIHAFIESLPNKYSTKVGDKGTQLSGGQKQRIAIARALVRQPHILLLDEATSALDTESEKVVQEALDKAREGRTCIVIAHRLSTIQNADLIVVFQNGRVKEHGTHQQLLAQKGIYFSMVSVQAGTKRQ

COc1ccccc1-c1n[nH]c2nc(N[C@H]3CC[C@H](NS(=O)(=O)CC(C)C)CC3)ncc12  relative abundance (bead binding, competition bead pull-down, item: LINJ.27.1710; Leishmania donovani extract; 10 µM; baseline: vehicle): 0.96
O=C1NC(=O)c2c1c1cc(F)c[n+]3c1c1c2c2cc(O)ccc2[n]1[Ru-4]312([N]=C=S)[S+]3CC[S+]1CC[S+]2CC3 (stereo not drawn)  remaining activity (TAOK3 (Homo sapiens, UniProt Q9H2K8); enzyme activity; 100 nM, human enzyme, together with: 10 µM ATP; baseline: untreated): 89%
COc1ccccc1-c1n[nH]c2nc(NC3CCN(C(=O)Cc4ccc(F)cc4F)CC3)ncc12  relative abundance (bead binding, competition bead pull-down, item: LINJ.30.3560; Leishmania donovani extract; 10 µM; baseline: vehicle): 1.11
CC(C)(C)C(=O)OCOP(=O)(OCOC(=O)C(C)(C)C)C1CCCN(O)C1=O (stereo not drawn)  log LC50 (TK-10): > -4 log M
NC[C@]1(CC(=O)O)CC[C@H]([18F])CC1  slow-phase half-life (PET, arterial plasma; rhesus monkey, plasma parent; intravenous, baseline): 2.45 h
O=C(NS(=O)(=O)c1cccs1)c1cc2ccccc2n1Cc1ccc(Br)c2ccccc12  body weight (KM mouse, chronic hyperuricaemia model; dose not given, day 12): 25.8 g
CC(C)[C@H]1NC(=O)C[C@H]2/C=C/CCSSC[C@@H](NC1=O)C(=O)N[C@H](Cc1cccc3ccccc13)C(=O)NCC(=O)O2  inhibition (HIPK2 (Homo sapiens, UniProt Q9H2X6); enzyme activity, inhibitor; 10 µM): -1%
Cc1cc(-c2ccc3ccccc3c2)nnc1NCCN1CCN(C)CC1  remaining compound (Cytochrome P450 2C8 (CYP2C8, Homo sapiens, UniProt P10632); substrate; recombinant enzyme; 100 nM, 0.5 h): 93%
Cc1nc2cccc(OCC(C)(C)C(=O)NC(C)C)c2c(N)c1C(=O)[O-].[Na+]  revertant colonies (Salmonella typhimurium; Ames plate incorporation; TA1535; 0.13 mg/plate, together with: with rat liver S9): 12 ± 2 colonies/plate
CNC(=O)CC1CN(C(=O)c2ccc(C(F)(F)F)cn2)CCN1C(=O)c1cccnn1 (stereo not drawn)  viability (Huh-7-ACE2; CellTiter-Glo; 1.562 µM, 48 h, unit not given; baseline: DMSO): 1.1 and 1.02 and 1.06
COc1cc2c(cc1NC(=O)c1cncn1C)C[C@H]1[C@H]3CCCC[C@@]23CCN1C  half-life (metabolic stability; mouse, liver microsomes): 0.24 h
COc1ccc(-n2cc(C(=O)N3C[C@]4(OC(=O)c5ccccc5NC(C)=O)CC[C@H](OC)[C@@]56[C@@H]4C[C@@H]([C@@H]35)[C@@]3(O)C[C@H](OC)[C@H]4C[C@@H]6[C@]3(O)[C@H]4OC)nn2)cc1  plasma concentration (Sprague-Dawley rat, plasma; intravenous, 2 mg/kg, 0.25 h): 63.3 ng/mL
CNC(=O)C[C@H](Cc1ccncc1)NC(=O)[C@@H](Cc1cccc(Br)c1)NC(=O)[C@@H](N)Cc1cccc(F)c1  viability (Huh-7-ACE2; CellTiter-Glo; 0.000191 µM, 48 h, unit not given; baseline: DMSO): 1.12 and 1.05 and 1.01
C[C@@H](c1ccc2nccn2c1)n1nnc2ncc(-c3cn[nH]c3)nc21  inhibition (human CYP3A4/5; time-dependent inhibitor; human liver microsomes; 50 µM): 29%
CS(C)(=O)=Nc1ccc(-c2ccc(-c3nc4cc(O[C@@H]5CO[C@H]6[C@@H]5OC[C@H]6O)[nH]c4cc3F)cc2)cc1  inhibition (CAMK2D (Homo sapiens, UniProt Q13557); enzyme activity, inhibitor; 10 µM): 5%
CNC(=O)C[C@H](Cc1ccc(F)cc1)NC(=O)[C@@H](Cc1ccc(Cl)cc1Cl)NC(=O)[C@H](N)Cc1ccccc1[N+](=O)[O-]  viability (Huh-7-ACE2; CellTiter-Glo; 0.195 µM, 48 h, unit not given; baseline: DMSO): 1.15 and 0.963 and 1.05
Cc1ccc(NS(=O)(=O)c2c(C(=O)N3CCCCCC3)c(C)n(C)c2C)c(Cl)c1  viability (human cells; 0.412 µM, 60 h): 94.7%
CN(C)c1ccc(-c2nc3ccccc3n2CCCOc2ccccc2)cc1  IC50 (Huh-7; cell growth or viability, ATP luminescence; 72 h): > 10 µM
CN(C)[C@H]1C[C@@]23CC[C@@]4(O2)C(=CC[C@]2(C)[C@@H](c5ccc6ccncc6c5)CC[C@H]24)C=C3[C@@H](O)[C@@H]1O  inhibition (Aurora kinase B (AURKB, Homo sapiens, UniProt Q96GD4); ATP probe labelling, inhibitor, KiNativ profiling; 1 µM): 3%
CC(=O)NCCCC[C@@H]1NC(=O)[C@H](Cc2c[nH]c3c(C)cccc23)NC(=O)[C@H]([C@@H](C)O)NC(=O)[C@H](CC(N)=O)NC(=O)[C@@H](NC(C)=O)C(C)(C)SSC(C)(C)[C@@H](C(=O)N[C@@H](Cc2ccc(OCCN)cc2)C(=O)N[C@@H](Cc2ccc3ccccc3c2)C(=O)NC2(C(=O)N[C@@H](CCC(=O)O)C(=O)N[C@@H](CC(N)=O)C(=O)N[C@@H](Cc3cccnc3)C(=O)N(C)CC(N)=O)CCOCC2)NC1=O  efflux ratio (ABCB1 (Homo sapiens, UniProt P08183); transport, inhibitor; LLC-PK1 expressing MDR1; 1 µM, 90 min, together with: [3H]digoxin): 17.2
O=C1NC2(CC2)COc2ncc(F)cc2[C@H]2COCCN2c2ccn3ncc1c3n2  organ-to-brain weight ratio (Sprague-Dawley rat, male, heart; oral, 10 mg/kg/day, 4 weeks, end of treatment): 84.5 ± 12.7%

Some of these lines once more:
CC(=O)NCCCC[C@@H]1NC(=O)[C@H](Cc2c[nH]c3c(C)cccc23)NC(=O)[C@H]([C@@H](C)O)NC(=O)[C@H](CC(N)=O)NC(=O)[C@@H](NC(C)=O)C(C)(C)SSC(C)(C)[C@@H](C(=O)N[C@@H](Cc2ccc(OCCN)cc2)C(=O)N[C@@H](Cc2ccc3ccccc3c2)C(=O)NC2(C(=O)N[C@@H](CCC(=O)O)C(=O)N[C@@H](CC(N)=O)C(=O)N[C@@H](Cc3cccnc3)C(=O)N(C)CC(N)=O)CCOCC2)NC1=O  efflux ratio (ABCB1 (Homo sapiens, UniProt P08183); transport, inhibitor; LLC-PK1 expressing MDR1; 1 µM, 90 min, together with: [3H]digoxin): 17.2
O=C1NC(=O)c2c1c1cc(F)c[n+]3c1c1c2c2cc(O)ccc2[n]1[Ru-4]312([N]=C=S)[S+]3CC[S+]1CC[S+]2CC3 (stereo not drawn)  remaining activity (TAOK3 (Homo sapiens, UniProt Q9H2K8); enzyme activity; 100 nM, human enzyme, together with: 10 µM ATP; baseline: untreated): 89%
